Results gathered from unrelated publications.
“And” joins repeats or separate records; there may be more than shown. ± gives the spread as reported.
ABCG2: Broad substrate specificity ATP-binding cassette transporter ABCG2 (ABCG2, Homo sapiens, UniProt Q9UNQ0)
Sequence of UniProt Q9UNQ0 (whole entry, looked up): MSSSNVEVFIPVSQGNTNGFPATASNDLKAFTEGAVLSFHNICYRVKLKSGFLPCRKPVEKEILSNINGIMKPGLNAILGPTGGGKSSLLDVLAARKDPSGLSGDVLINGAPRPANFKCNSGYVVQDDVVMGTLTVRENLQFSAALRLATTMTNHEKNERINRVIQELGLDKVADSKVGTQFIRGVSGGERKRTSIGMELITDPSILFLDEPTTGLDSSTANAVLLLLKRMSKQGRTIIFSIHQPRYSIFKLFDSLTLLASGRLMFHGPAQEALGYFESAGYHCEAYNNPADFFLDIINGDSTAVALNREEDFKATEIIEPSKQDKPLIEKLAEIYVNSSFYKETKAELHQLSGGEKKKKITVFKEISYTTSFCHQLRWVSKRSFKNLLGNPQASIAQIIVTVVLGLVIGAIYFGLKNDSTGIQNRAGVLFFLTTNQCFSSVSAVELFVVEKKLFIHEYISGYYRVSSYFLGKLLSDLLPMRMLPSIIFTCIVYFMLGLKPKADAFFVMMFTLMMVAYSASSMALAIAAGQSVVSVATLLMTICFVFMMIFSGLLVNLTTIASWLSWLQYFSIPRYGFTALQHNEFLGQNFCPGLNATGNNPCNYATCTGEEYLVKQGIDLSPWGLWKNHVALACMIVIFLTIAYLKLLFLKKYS
Toll-like receptor 3: Toll-like receptor 3 (Homo sapiens, UniProt O15455)
Sequence of UniProt O15455 (whole entry, looked up): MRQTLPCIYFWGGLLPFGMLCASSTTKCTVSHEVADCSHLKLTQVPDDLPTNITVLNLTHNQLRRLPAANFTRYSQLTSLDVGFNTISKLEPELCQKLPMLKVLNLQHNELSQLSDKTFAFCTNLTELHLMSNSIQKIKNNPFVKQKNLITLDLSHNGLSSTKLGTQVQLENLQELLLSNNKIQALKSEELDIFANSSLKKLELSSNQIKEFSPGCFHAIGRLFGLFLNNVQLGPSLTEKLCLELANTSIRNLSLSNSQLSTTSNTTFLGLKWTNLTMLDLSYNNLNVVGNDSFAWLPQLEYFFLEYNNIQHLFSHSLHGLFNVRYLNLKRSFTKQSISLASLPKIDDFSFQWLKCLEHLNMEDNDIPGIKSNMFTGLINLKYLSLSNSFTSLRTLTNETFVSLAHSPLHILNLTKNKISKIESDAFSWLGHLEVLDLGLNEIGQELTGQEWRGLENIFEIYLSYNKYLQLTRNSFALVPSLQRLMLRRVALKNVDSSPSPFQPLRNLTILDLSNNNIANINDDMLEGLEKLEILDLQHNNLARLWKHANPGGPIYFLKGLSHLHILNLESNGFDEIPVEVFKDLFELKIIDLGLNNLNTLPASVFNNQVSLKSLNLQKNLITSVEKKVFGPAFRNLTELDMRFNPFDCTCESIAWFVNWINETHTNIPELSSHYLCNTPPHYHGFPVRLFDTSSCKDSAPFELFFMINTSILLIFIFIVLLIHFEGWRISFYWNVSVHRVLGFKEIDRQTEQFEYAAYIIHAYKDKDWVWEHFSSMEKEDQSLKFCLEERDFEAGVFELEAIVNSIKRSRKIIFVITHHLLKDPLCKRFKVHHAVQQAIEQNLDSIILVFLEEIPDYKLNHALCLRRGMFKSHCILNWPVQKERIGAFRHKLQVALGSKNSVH
USP20 ZnF-UBD domain: Ubiquitin carboxyl-terminal hydrolase 20, ZnF-UBD domain (USP20, Homo sapiens, UniProt Q9Y2K6)
Sequence of UniProt Q9Y2K6 (whole entry, looked up): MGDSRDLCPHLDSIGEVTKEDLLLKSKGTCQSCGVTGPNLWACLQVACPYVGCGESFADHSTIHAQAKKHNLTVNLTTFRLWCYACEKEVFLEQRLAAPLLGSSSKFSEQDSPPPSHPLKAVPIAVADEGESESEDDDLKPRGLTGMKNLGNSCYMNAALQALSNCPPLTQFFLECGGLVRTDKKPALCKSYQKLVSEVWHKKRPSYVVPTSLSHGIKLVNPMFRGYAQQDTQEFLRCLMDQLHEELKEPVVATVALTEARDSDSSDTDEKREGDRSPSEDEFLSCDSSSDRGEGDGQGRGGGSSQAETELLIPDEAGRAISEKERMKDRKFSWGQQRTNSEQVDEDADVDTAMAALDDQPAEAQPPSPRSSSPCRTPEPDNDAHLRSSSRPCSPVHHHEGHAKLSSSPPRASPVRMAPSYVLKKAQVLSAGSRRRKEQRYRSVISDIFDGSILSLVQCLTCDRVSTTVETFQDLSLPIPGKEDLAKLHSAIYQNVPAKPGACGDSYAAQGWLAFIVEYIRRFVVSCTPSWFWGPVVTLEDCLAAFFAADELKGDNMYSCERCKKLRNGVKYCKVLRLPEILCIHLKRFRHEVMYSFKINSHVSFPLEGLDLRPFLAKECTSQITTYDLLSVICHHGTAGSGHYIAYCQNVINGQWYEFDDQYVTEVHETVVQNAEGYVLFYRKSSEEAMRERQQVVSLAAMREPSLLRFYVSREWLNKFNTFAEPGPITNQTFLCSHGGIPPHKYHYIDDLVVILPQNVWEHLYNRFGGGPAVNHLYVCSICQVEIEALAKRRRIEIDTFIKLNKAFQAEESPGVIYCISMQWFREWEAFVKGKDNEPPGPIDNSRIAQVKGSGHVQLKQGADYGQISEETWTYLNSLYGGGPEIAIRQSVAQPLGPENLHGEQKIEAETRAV
KCNH2: Voltage-gated inwardly rectifying potassium channel KCNH2 (KCNH2, Homo sapiens, UniProt Q12809)
Sequence of UniProt Q12809 (whole entry, looked up): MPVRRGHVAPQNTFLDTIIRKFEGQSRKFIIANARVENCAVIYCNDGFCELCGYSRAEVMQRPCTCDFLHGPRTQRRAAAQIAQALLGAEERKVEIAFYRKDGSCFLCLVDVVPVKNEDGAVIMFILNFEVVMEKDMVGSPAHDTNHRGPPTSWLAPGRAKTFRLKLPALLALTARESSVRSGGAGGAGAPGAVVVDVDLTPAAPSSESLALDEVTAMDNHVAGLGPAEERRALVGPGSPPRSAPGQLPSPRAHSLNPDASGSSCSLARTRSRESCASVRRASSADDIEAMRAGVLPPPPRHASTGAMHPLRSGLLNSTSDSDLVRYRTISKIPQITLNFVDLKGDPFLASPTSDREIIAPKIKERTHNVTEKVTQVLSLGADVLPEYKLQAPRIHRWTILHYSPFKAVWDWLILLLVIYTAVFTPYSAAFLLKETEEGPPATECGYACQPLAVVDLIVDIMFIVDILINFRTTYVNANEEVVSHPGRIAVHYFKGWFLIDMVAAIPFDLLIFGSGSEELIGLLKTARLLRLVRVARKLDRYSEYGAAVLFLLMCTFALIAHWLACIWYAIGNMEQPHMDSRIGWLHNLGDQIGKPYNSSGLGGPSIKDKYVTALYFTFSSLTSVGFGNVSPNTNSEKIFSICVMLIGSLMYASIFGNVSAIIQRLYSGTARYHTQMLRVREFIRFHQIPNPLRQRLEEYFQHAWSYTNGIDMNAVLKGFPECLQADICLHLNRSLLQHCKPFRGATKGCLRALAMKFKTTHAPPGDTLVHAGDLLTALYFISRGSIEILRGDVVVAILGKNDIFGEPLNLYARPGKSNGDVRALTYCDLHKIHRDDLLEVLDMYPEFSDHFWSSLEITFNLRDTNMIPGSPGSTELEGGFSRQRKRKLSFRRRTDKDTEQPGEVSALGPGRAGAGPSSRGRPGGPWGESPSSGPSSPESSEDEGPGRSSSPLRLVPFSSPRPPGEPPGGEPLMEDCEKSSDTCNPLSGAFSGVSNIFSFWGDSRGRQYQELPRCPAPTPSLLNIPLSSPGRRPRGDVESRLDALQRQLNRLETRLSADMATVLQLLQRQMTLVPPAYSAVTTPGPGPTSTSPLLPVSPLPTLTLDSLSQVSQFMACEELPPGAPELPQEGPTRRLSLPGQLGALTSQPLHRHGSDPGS
PLA2G5: Phospholipase A2 group V (PLA2G5, Homo sapiens, UniProt P39877)
Sequence of UniProt P39877 (whole entry, looked up): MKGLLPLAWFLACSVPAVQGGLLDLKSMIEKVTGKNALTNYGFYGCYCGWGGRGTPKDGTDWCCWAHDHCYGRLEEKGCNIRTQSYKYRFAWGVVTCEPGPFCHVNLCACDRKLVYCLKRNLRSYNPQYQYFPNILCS
PSMB6: Proteasome subunit beta type-6 (PSMB6, Homo sapiens, UniProt P28072)
Sequence of UniProt P28072 (whole entry, looked up): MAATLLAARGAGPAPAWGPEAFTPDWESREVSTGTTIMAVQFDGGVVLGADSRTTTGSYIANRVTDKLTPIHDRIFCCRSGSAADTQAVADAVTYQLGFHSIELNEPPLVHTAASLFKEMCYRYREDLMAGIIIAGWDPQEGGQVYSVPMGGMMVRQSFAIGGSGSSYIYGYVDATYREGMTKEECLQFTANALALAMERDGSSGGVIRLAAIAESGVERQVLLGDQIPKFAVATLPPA
CA1: Carbonic anhydrase 1 (CA1, Homo sapiens, UniProt P00915)
Sequence of UniProt P00915 (whole entry, looked up): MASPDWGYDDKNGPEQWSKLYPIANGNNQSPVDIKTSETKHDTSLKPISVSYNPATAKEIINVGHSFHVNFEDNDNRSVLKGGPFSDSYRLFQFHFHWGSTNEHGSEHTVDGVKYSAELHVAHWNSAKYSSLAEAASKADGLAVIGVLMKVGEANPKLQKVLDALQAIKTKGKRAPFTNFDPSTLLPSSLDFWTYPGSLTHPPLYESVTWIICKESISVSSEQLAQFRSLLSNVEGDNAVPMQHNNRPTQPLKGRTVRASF
YES1: Tyrosine-protein kinase Yes (YES1, Homo sapiens, UniProt P07947)
Sequence of UniProt Q86XQ3 (whole entry, looked up): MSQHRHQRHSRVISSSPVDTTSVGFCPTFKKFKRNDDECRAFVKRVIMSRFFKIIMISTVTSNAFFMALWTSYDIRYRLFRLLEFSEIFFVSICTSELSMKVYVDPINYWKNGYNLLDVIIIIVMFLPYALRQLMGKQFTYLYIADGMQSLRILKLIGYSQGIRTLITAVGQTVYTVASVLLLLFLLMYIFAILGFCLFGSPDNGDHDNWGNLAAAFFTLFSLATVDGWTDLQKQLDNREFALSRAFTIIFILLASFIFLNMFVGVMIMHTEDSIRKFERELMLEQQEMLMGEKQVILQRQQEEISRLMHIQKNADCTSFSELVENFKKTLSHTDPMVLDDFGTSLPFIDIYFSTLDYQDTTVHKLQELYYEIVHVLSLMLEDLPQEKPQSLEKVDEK
Sequence of UniProt P42330 (whole entry, looked up): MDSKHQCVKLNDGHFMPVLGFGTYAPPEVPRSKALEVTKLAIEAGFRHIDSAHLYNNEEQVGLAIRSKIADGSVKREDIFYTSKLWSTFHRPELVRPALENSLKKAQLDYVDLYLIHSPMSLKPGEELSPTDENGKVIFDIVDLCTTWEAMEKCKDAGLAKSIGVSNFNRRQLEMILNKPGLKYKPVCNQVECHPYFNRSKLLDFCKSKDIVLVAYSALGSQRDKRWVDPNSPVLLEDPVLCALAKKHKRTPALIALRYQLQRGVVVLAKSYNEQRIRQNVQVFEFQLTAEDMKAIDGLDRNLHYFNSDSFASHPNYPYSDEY

Structure (SMILES) | target | test | system | conditions | measurement | result
C[C@H](O)[C@H](O)[C@H]1CNc2nc(N)[nH]c(=O)c2N1 | ABCG2 | inhibitor |  | estimated | IC50 | 778 µM
O=c1nc(SCc2cc(F)cc(C(F)(F)F)c2)nc(SCc2ccc3sccc3c2)[nH]1 | TOP2A (Homo sapiens, UniProt P11388) | ATPase activity, inhibitor, competitive ATPase |  | together with: 0.25 mM ATP | IC50 | 11.9 µM
O=C1C(=O)N(Cc2ccc(Cc3ccc(CN4C(=O)C(=O)c5ccccc54)cc3)cc2)c2ccccc21 | Replicase polyprotein 1ab, 3C-like proteinase (Feline coronavirus, UniProt Q98VG9) | protease activity, inhibitor |  | together with: 6 µM fluorogenic substrate | IC50 | 10.3 ± 2.57 µM
C=CC(=O)Nc1cccc(Oc2nc(Nc3ccc(N4CCN(C)CC4)cc3)nc3ccoc23)c1 | IRAK1 (Homo sapiens, UniProt P51617) |  |  |  | IC50 | > 5 µM
CN1CCN(c2ccc(Nc3ncc4cc(C#N)c(=O)n(C5CCCC5)c4n3)cc2)CC1 | FLT1 (Homo sapiens, UniProt P17948) |  |  |  | IC50 | 0.121 µM
N#Cc1ccc([C@H]2CCc3cncn32)c(F)c1 | Cytochrome P450 2A6 (CYP2A6, Homo sapiens, UniProt P11509) | inhibitor, item: coumarin 7-hydroxylation | pooled human liver microsomes | pH 7.4, together with: coumarin 1 µM | IC50 | > 100 µM
COc1ccccc1C(=O)Nc1ccc(-c2nc3ccccc3[nH]2)cc1 | Tyrosine-protein kinase SYK, with FCER1G (SYK, Homo sapiens, UniProt P43405) | inhibitor, TR-FRET |  | counter screen | IC50 | 18.6 µM
Cc1c2ccncc2c(C)c2c1[nH]c1ccc(CNC3CCCCC3)cc12 | Toll-like receptor 3 | reporter gene, inhibitor | HEK-Blue hTLR3 | together with: poly(I:C) | IC50 | 0.09 ± 0.01 µM
c1ccc(CN(Cc2ccccn2)C(c2ccccn2)c2ccccn2)nc1 | Proteasome subunit beta type-6, caspase-like site (PSMB6, Homo sapiens, UniProt P28072) | caspase-like activity, inhibitor, purified 20S proteasome |  | pH 7.4, together with: 20 µM Z-LLE-AMC | IC50 | > 1000 µM
Cc1ccc(NC(=S)N/N=C/c2cn(S(=O)(=O)c3ccc(C)cc3)c3ccccc23)cc1 | mushroom tyrosinase | enzyme activity, inhibitor |  | together with: L-DOPA substrate | IC50 | 14.3 ± 0.3 µM
CCc1ccc(Cn2nnc3c4ccc(F)cc4c(=O)[nH]c32)cc1 | PARP15 (Homo sapiens, UniProt Q460N3) |  |  |  | IC50 | > 10 µM
O=C(O)CNc1ccc2nncn2n1 | USP20 ZnF-UBD domain |  |  |  | Kd | 882 µM
CC1(C)CN(C(=O)Cn2c(=O)c(C(=O)NCc3ccc(Cl)cc3)cc3nccnc32)C1 | KCNH2 | ion current, automated patch clamp | CHO expressing hERG |  | IC50 | 4.9 µM
Cc1c2ccncc2c(C)c2c1[nH]c1ccc(OCc3ccccc3)cc12 | Toll-like receptor 3 | reporter gene, inhibitor | HEK-Blue hTLR3 | together with: poly(I:C) | IC50 | 11.5 ± 1.42 µM
Cc1nc2ccc(Cl)cc2c(=O)n1NC1=NC(=O)CS1 | PLA2G5 | enzyme activity, inhibitor, colorimetric |  |  | IC50 | 68 ± 1.41 µM
Cc1ccc(S(=O)(=O)n2cc(/C=N/NC(=S)NCc3ccc(Cl)cc3)c3ccccc32)cc1 | mushroom tyrosinase | enzyme activity, inhibitor |  | together with: L-DOPA substrate | IC50 | 13.7 ± 0.3 µM
COc1ccc(C[C@H](N)C(=O)N[C@H]2[C@@H](O)[C@H](n3cnc4c(N(C)C)ncnc43)O[C@@H]2CO)cc1 | rat neuron-specific aminopeptidase | enzyme activity, inhibitor |  |  | IC50 | 1 µM
O=c1c2ccccc2c(Cc2ccc(Cl)cc2)nn1C1CCCNCC1 (stereo not drawn) | CatSper channel complex (Homo sapiens, UniProt Q7RTX7+Q86XQ3+Q8NEC5+Q96P56) | calcium influx, inhibitor, FLIPR | human sperm | together with: high pH, high potassium | IC50 | 5.1 µM
CC1=CC(C)=[N+]2C1=Cc1ccc(CCCCCCCCCCCCCCCC(=O)O)n1[B-]2(F)F | EIF2AK2 (Homo sapiens, UniProt P19525) | autophosphorylation, inhibitor, Western blot |  | purified PKR | IC50 | 48.3 ± 8.57 µM
Cc1cnc(-c2ccc(-c3ccc(NC(=O)Nc4c(F)cc(F)cc4F)cc3F)c3c2C(=O)NC3)[nH]1 | CSF1R (Homo sapiens, UniProt P07333) | kinase activity, inhibitor, cell-free |  | 90 min, 28 °C, together with: ATP | IC50 | 0.00062 µM
COc1ccc2cc(/C=N/n3c(C)nc4ccc(Br)cc4c3=O)ccc2c1 | PLA2G5 | enzyme activity, inhibitor, colorimetric |  |  | IC50 | 34.1 ± 1 µM
COc1ccc(C[C@H](NC(=O)[C@H](C)NC(=O)CN2CCOCC2)C(=O)N[C@@H](CC2CCC(F)(F)CC2)C(=O)[C@@]2(C)CO2)cc1 | PSMB6 | competitive ABPP | Raji cell lysate |  | IC50 | > 10 µM
CC1(F)CN(C(=O)Cn2c(=O)c(C(=O)NCc3ccc(Cl)cc3)cc3nc(N4CCN(CC(=O)O)C4=O)cnc32)C1 | KCNH2 | ion current, automated patch clamp |  | retest | IC50 | 22 µM
CC[C@@H]1[C@H](F)C(=O)N[C@@H]1COc1nccc2cc(C(N)=O)c(OC)cc12 | STK38 (Homo sapiens, UniProt Q15208) | ATP-site probe binding, ActivX profiling | THP-1 cell lysate | Lys1 site | IC50 | 0.6 µM

Structure (SMILES) | target | test | system | conditions | measurement | result
OC1CCN(c2ccc(/C=N/NC(=S)Nc3ccccc3)cc2)CC1 | CA1 | enzyme activity, inhibitor |  |  | IC50 | 0.55 µM
CCn1c(-c2nc3ccc(C(=O)N4CCCC(N)C4)cc3n2C)cc2ccccc21 (stereo not drawn) | CHRNA1 (Homo sapiens, UniProt P02708) | intracellular calcium, antagonist, fluorescence |  |  | IC50 | 1 µM
O=C(O)CCC(=O)N1CCc2ccccc21 | USP20 ZnF-UBD domain |  |  |  | Kd | 291 µM
O=C(O)CCc1nccc2c1[nH]c1ccccc12 | SLC22A12 (Homo sapiens, UniProt Q96S37) | 14C-uric acid uptake, inhibitor | HEK293 expressing URAT1 |  | IC50 | no inhibition
Cc1cnc(-c2ccc(-c3ccc(NC(=O)Nc4c(F)cc(F)cc4F)cc3F)c3c2C(=O)NC3)[nH]1 | YES1 | enzyme activity, inhibitor, mobility shift |  | together with: ATP 1 mM | IC50 | 0.362 µM
Cc1ncc(C(=O)N[C@@H](CC2CCC(C)CC2)C(=O)N[C@@H](CC(C)C)C(=O)N[C@H](/C=C/S(C)(=O)=O)Cc2ccc(CN)cc2)s1 (stereo partly drawn) | PSMB6 | competitive ABPP | Raji cell lysate |  | IC50 | > 10 µM
Cc1nc(F)ccc1-c1cc(Cn2ccn(C)c2=N)cc(C(=O)NCc2ccc(Cl)c(Cl)c2)c1 | WD repeat-containing protein 5, SETD1A complex (WDR5, Homo sapiens, UniProt P61964) | SETD1A methyltransferase activity, inhibitor |  | together with: core histones substrate | IC50 | > 20 µM
COc1ccc(NC(=S)N/N=C/c2ccc(N3CCC(O)CC3)cc2)cc1 | CA1 | enzyme activity, inhibitor |  |  | IC50 | 0.633 µM
COc1ccccc1N1CCN(C(=O)c2ccc(S(=O)(=O)n3cnc(C4CCCCC4)n3)cc2)CC1 | AKR1C3 (Homo sapiens, UniProt P42330) | coumberone reduction | HEK-293T overexpressing AKR1C3 |  | IC50 | 0.013 µM
C#Cc1ccc(Oc2ccnc(N3CCC(NC(=S)Nc4cccnc4)CC3)c2Cl)c(Cl)c1 | Abhd12 (Mus musculus, UniProt Q99LR1) | lyso-PS hydrolysis, inhibitor | HEK293T transfected membrane lysate | together with: lyso-PS | IC50 | 0.072 µM
Cc1cc2c(F)c(Oc3ncnn4cc(OC[C@@H](C)O)c(C)c34)ccc2[nH]1 | ABCG2 | inhibitor |  | 1 h | IC50 | 9.61 µM
CC(C)C[C@H](NC(=O)CN1CCOCC1)C(=O)N[C@@H](CC(C)C)C(=O)N[C@H](/C=C/S(C)(=O)=O)Cc1ccc(CN)cc1 | PSMB6 | competitive ABPP | Raji cell lysate |  | IC50 | > 10 µM
CC(=O)N1C[C@@H](CCN2CCC(c3c[nH]c4cc(Cl)ccc34)CC2)c2ccccc21 | SLC6A4 (Homo sapiens, UniProt P31645) | inhibitor |  |  | IC50 | 1.1 µM
COc1cc(C(=O)NS(=O)(=O)c2ccccc2C)ccc1Cc1cn(C)c2ccc(NC(=O)OC3CCCC3)cc12 | LRRC8A/LRRC8C (Homo sapiens, UniProt Q8IWT6+Q8TDW0, M48D/T48D) | ion current, inhibitor, whole-cell patch clamp | HCT116 LRRC8-/- transfected | at -100 mV | IC50 | 56 µM
CC(C)C[C@H](NC(=O)[C@H](Cc1ccccc1)N=[N+]=[N-])C(=O)N[C@@H](CC(F)(F)F)C(=O)N[C@H](/C=C/S(C)(=O)=O)Cc1ccc(CN)cc1 | PSMB6 | competitive ABPP | Raji cell lysate |  | IC50 | > 10 µM
COc1c(Cl)cccc1Nc1c(-c2ccncc2OC[C@@H]2COCCO2)[nH]c2c1C(=O)NCC2 | YES1 | kinase activity, inhibitor, TR-FRET |  | median value, together with: ATP 2 mM | IC50 | 5.88 µM
COc1cc2c(cc1OC)C1CC(=O)C(CC(C)C)CN1CC2 (stereo not drawn) | SLC18A2 (Homo sapiens, UniProt Q05940, F135A) | FFN206 uptake, inhibitor, fluorescence imaging |  | F135A mutant, together with: FFN206 5 µM | IC50 | 0.514 µM
COC1CCC(C[C@H](NC(=O)[C@H](CC(C)C)NC(=O)c2cnc(C)s2)C(=O)N[C@H](/C=C/S(C)(=O)=O)Cc2ccc(CN)cc2)CC1 (stereo partly drawn) | PSMB6 | competitive ABPP | Raji cell lysate |  | IC50 | > 10 µM
Cc1nn(C)c2ncc(C(=O)NCc3ccccc3)c(Cl)c12 | MDH2 (Sus scrofa, UniProt P00346) | enzyme activity, reporter counter-screen |  | native enzyme | IC50 | > 63 µM
Cc1ncc(C(=O)N[C@@H](CC(C)C)C(=O)N[C@@H](CC2CCC3CCCCC3C2)C(=O)N[C@H](/C=C/S(C)(=O)=O)Cc2ccc(CN)cc2)s1 (stereo partly drawn) | PSMB6 | competitive ABPP | Raji cell lysate |  | IC50 | > 10 µM
Cc1ccc(S(=O)(=O)n2cc(/C=N/NC(=S)Nc3ccc(Cl)cc3)c3ccccc32)cc1 | mushroom tyrosinase | enzyme activity, inhibitor |  | together with: L-DOPA substrate | IC50 | 8.31 ± 0.2 µM
OC1CCN(c2ccc(/C=N/NC(=S)Nc3ccc(Cl)cc3)cc2)CC1 | CA1 | enzyme activity, inhibitor |  |  | IC50 | 0.422 µM
Cc1ncc(C(=O)N[C@@H](CC2CCC(C3CCCCC3)CC2)C(=O)N[C@@H](CC(C)C)C(=O)N[C@H](/C=C/S(C)(=O)=O)Cc2ccc(CN)cc2)s1 (stereo partly drawn) | PSMB6 | competitive ABPP | Raji cell lysate |  | IC50 | > 10 µM
COc1ccc2c3c([nH]c2c1)[C@H](CC(C)C)N1C(=O)[C@H](CC(=O)NC(C)(C)C)NC(=O)[C@@H]1C3 | ABCG2 | inhibitor, item: protoporphyrin IX | A549 | 2 h, together with: 1 mM ALA | IC50 | 0.39 µM and 0.13 µM and 0.09 µM
